# Experimental data pooled from the literature.
# Each numbered part is a random draw from the data of one study; scales do not carry over between parts.

# Sample 1 — technique: universal PBM; molecule type: double-stranded DNA, one strand shown; matrix: in vitro; concentration: 600 nM; reading: higher = stronger binding
# Target: Sal-like protein 4, full length isoform A (SALL4, Homo sapiens, UniProt Q9UJQ4, residues 1-1053)
# Chain of UniProt Q9UJQ4 (whole entry, looked up): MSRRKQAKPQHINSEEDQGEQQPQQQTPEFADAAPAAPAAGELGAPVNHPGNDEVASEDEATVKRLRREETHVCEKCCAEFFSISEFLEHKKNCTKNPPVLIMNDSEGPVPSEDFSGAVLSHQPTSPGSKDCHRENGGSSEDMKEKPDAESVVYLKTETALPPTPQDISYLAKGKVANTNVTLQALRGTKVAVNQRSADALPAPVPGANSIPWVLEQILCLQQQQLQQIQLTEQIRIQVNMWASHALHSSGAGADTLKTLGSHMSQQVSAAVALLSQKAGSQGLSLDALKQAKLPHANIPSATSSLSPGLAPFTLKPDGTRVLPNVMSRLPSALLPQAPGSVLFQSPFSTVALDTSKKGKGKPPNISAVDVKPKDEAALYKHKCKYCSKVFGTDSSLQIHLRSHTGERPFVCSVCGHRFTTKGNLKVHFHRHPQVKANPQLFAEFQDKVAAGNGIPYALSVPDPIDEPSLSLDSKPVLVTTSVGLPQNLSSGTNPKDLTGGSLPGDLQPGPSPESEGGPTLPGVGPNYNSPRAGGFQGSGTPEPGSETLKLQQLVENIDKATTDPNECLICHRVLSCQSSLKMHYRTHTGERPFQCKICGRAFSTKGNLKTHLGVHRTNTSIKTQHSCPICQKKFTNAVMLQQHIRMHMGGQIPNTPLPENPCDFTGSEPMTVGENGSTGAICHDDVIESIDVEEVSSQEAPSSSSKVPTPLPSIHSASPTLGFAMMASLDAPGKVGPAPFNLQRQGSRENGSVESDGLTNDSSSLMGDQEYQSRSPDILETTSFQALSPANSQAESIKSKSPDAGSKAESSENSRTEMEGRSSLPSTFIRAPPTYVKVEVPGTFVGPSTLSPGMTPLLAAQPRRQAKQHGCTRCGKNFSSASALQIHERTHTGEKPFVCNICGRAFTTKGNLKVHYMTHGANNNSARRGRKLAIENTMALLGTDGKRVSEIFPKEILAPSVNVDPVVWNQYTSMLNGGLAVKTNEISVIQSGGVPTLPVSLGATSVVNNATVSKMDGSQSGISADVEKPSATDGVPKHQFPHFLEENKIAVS
# Notes: 8-mer, flanks averaged, mean of replicates
Oligonucleotide,E-score
GACGAGTA,0.00426
CTCCGTGC,-0.39
CACCGTGC,-0.159
AAGCGTCT,-0.125
CCGAACCG,-0.413
GACTATGC,0.0268
GCATCATA,0.299
ACGGTTCC,-0.228
AGTGAGCG,-0.101
GACTCAGC,-0.157
CAGCGGAC,-0.186
GGACTGAA,0.0182
AAATTCTA,0.232
AATAATAC,0.364
AGTTGTCA,0.0674
ACTCAGAC,0.0909
CTGCTAAG,-0.124
AACTGTTG,0.0641
ACATCCCA,-0.152
GCGTGCCC,-0.345
CATTCGGA,0.013
ATTAGCCG,-0.0191
ACCAATAT,0.336
GTACCACA,0.117
ACTATAGT,0.31

# Sample 2 — technique: RNA Bind-n-Seq; molecule type: RNA; matrix: in vitro; concentration: not given; baseline: input RNA pool; reading: higher = stronger binding
# Target: RING finger protein unkempt homolog, zinc fingers 1-6, GST-SBP tag (UNK, Homo sapiens, UniProt Q9C0B0, residues 30-357)
# Notes: RNA with constant flanks, human and mouse sites, ends assumed
# Constant ends, left off below: GGGAGUUCUACAGUCCGACGAUC … CAACAGAGGAUUGAGCAUCA
# Target sequence (chain): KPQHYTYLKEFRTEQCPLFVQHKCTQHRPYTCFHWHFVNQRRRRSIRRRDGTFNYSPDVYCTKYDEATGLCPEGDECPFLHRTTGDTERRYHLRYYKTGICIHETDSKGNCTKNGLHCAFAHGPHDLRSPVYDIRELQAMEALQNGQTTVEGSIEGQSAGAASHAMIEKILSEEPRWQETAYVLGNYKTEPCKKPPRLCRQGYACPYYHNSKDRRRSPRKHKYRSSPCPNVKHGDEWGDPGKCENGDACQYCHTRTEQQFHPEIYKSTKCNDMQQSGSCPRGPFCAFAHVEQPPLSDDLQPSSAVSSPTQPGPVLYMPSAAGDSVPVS
Oligonucleotide,bound/input enrichment
CUGGCGGUGGAGGCGUGCGUGAACAUCGCCCAGCUUCUGCCCCAGGAGGAUCUGGAGGCCCUGGUGAUGCCCACUCUGCGCCAGGCCGCUGAAGACAAGUCCUGGCGCGUCCGCUACAUG,0.036 ratio
AAGCCUGGAAAACCCAAGGGCAAGAAAAAGCUUUCUUCUGUUCGUCAAAAAUUUGAUCAUAGGUUCCAGCCUCAGAACCCCCUCUCUGGAGCUCAGCAGUUCGUGGCAAAGGAGCCCCAG,0.205 ratio
ACAUCUGACUGCUGGAUGAAGACUGUUCCAAGUUAUAACCAAACAAAUAGCUCCAUGGACUUUAGAAAUUAUAUGAUGAGAGAUGAGAAUCUGGAACCGCUGCCCAAAAACUGGGAAAUG,9.87 ratio
AGAAAGCAAAACUUGGAAAGAUUUAAGAAAGGAGAUGUAAGAUUCUUGAUUUGCACAGAUGUAGCUGCUAGAGGAAUUGAUAUCCACGGUGUUCCUUAUGUUAUAAAUGUCACUCUGCCC,0.429 ratio
UUUGCUCGACACACGGCUCUCAAGCCCCACGCAUGUCCUCGAUGCGGUAAGGGCUUCAAGCAUAGCUUCAACUUGGCUAACCACCUGCGCUCACACACUGGUGAACGACCCUACCGAUGC,0.231 ratio
GGUCUAAACAAAUGUGAAGUUAGUCAUAGGCGAGCCUUUCAUGGCUGGAAUGAGUUUGAUAUUAGUGAAGAUGAGCCACUGUGGAAGAAGUAUAUUUCUCAGUUUAAAAAUCCCCUUAUU,3.03 ratio
AAUAGAAACCAAACCAAAUGGGCACCCUGGGUUGCCCAGGGGCAGGGGAUGGGAGGGGGGUGGGAAGAAGGGAUGUCUGUCUGUCAGUCCCCUCCCCCUCUCCACUCCUUACCCACAAAG,0.234 ratio
CAGGGACGCUUUGAUGUAAAAAUUGAAAUUAAGAGCUGAUCACAAGCACAAAUCUUUCCCACUAGCCAUUUAAUAAGUUAAAAAAAGAUACACAAACCUACUAGUCUUGAACAAACUGUC,74 ratio
UUUCCAAAGCAGCCAGGAACAUCAGGUGCUUAUCCUCUUACUUCACCCCCUACAUCUUAUCAUAGCACAGUCAAUCAGUCUCCCUCAAUGAUGCACACACAGUCUCCAGGAAAUCUGCAU,1.58 ratio
GAGUCUAUGGUGAUGUACAUCGAGUGAAGAUUAUGUUUAAUAAGAAAGAAAAUGCCUUGGUUCAGAUGGCGGAUGCAAAUCAAGCUCAGCUAGCAAUGAACCAUCUAAGUGGUCAGAGAC,0.226 ratio
CUGACCUUGGAAGGAGGAUACCCACCACUGGAGGCUGGAGCCACUGGAAAGAGGCGUUAAAAAUUUUGCAGUUAUUUAUCUUGUGGAUAUUACAGAAGUGCCUGACUUCAACAAAAUGUA,0.364 ratio

# Sample 3 — technique: RNA Bind-n-Seq; molecule type: RNA; matrix: in vitro; concentration: 365 nM; baseline: no-protein control; reading: higher = stronger binding
# Target: RNA binding protein fox-1 homolog 2, RRM domain, GST-SBP tag (RBFOX2, Homo sapiens, UniProt O43251-10, residues 100-194)
# Notes: natural RNA segment, single round, ends assumed
# Constant ends, left off below: GGGAGUUCUACAGUCCGACGAUC … UGGAAUUCUCGGGUGCCAA
# Target sequence (chain): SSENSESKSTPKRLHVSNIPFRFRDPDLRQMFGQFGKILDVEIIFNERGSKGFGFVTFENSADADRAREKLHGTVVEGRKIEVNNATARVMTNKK
Oligonucleotide,RBNS enrichment (R)
GGGCUGGCUAGAUGAUAUAGGUGACUGGCACCUAUUAAGAGUAUAUAACAUAAAUACCAUAAAAAGGAGGAAAUAAAGAUAAGUAAACAUCUCAUUUCUCAAAAAAAAAA,1.02
UCUCCACAGGUGCGGCCUGGCCCGGCCUCCUAAAGGCCACACCCUCCCCACGCACUUCCCAGGCCAGAAUCCAAACAUCGGGAACCCUGUUUUCUUCUGGGUGUGUCUCA,0.538
UCAGAGGACUCAGCGUCAGGAUCCGAUGAGUAGAAACGGAGGAAGGUUCUCUUUGCGCUUGCCUUCUCACACCCCCCGACUCCCCACCCAUAUUUUGGUACCAGUUUCUC,0.554
CCCAGCCUCUGUGACAGUGACCGUCUCCCUUUGUACAUACUUGCACACAGGUUCCCCAUGUACAUACAUGCACAUACUCAAACAUGCGUACACACACACACAUUUACACA,1.01
CUGUCAUUCCCAGCUCUGUGACCUACUGCUUGGUACUAAAAAGGAGUUUUCUUCCAAAAGCACUGUUUCCAGUCUGAGUAGGAGCUACCAGCCUGUGGCAAUCAGCAGGG,0.352
UACCCUAACCCAUCACGCCCUGGUGAAGCCCCCAAGGCCUGCUGCUUUGGGGUGUGGCCUGUGACUGUGUUUCCCAGGUGGGGACCAGAAGAUGUCUGAGGUCCUCCUGA,0.229
AACCUUUGCUUCGACAGGUCUUCACUCACGAUUUAUUCCUCCAGGUCUUUGAUUGGAGAGAGUAACUUUUUAAUUCUGUUGUUUUGCAGUUUGGCUCUGUAGGAGUGAGU,0.332
GAAUCUUCGGUUCUCGAGGAAGUGUUGACAGUGUGAUGCUAAUGUCUGCUUUUCUUGGCGUUGGGUAGAAGCAGGACAUCUGUGUGUAUGUGCGUAUUUAAAUUAGAUUA,4
UUAUUCUAUUUUGUACAGACAAGUUGGGAAAACAACAGCGACAAAAAAAAGUCGAGAAACUUUGUAAAAUAUUGUGUGUGUGAUUCCUUGUAAAAUAUUUUCAAAUGGUU,0.958
AGAAUAGUGGGGCCCAGCCGAUGUGGUAGGUGAUAAAGAGGCAUCUUUUCUAGAGACACAUUGGACCAGAUGAGGAUCCGAAACGGCAGCCUUUACGUUCAUCACCUGCU,0.325
UGUCUUAAAUACUUUAAUGUUGGAAGAGCAUAGUGUUUGGGCUAGUGGGUUUCUGACAGCCCAUGGGAAUGCCCUGAAACUACUGUAUCUGAUGUUUGUUUUCGAUGAGG,0.451
UUCCAGAAAACUGUCACAGAGCACACGCACAAAGGCCUUCGCUGUAGGGCCCAACAGGGACAGGAGACUUGAGGACACCUGUCAUCAGCACUGGUGUCUAUUCCACAAGA,0.321

# Sample 4 — technique: RNA Bind-n-Seq; molecule type: RNA; matrix: in vitro; concentration: 200 nM; notes: whole 134-nt RNA, ends assumed; added: 150 mM LiCl; baseline: input library; reading: higher = stronger binding; all molecules: 7-deaza-guanosine replaces G
# Target: Ras GTPase-activating protein-binding protein 1, full length (G3BP1, Homo sapiens, UniProt Q13283)
# Chain of UniProt Q13283 (whole entry, looked up): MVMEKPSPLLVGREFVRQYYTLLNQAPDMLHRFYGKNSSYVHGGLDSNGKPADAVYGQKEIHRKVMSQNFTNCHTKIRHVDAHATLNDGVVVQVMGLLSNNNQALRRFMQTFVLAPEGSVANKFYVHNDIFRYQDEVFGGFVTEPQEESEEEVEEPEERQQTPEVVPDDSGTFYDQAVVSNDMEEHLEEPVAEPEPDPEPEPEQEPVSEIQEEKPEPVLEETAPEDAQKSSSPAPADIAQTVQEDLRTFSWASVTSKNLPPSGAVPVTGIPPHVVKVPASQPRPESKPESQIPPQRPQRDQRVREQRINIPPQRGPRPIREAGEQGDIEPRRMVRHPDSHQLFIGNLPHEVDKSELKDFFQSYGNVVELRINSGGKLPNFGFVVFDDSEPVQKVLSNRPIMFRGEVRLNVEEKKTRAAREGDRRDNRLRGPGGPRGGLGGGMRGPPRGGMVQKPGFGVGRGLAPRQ
# Constant ends, left off below: GGGAGUUCUACAGUCCGACGAUC … UGGAAUUCUCGGGUGUCAAGG
Oligonucleotide,log2 enrichment
AAGUCCUGUGCUACACAUCGUAUGUACCGAAUCGGGUUUGGGAAAGGGAAAAAGGGAAAGUAUUAUGUUACGCCGUUCGGAUCUGCACUU,0.292
GCAGGAAGUAAAAACAAAUGGAAAUGCUUCGGAUAAAGGCAGGGGUGGGGGUUGCUAAGGAAAGGGUGGGAUGGGAGUGGGUAAAGAGUU,-0.261
UCAAGUCCUGUGCUACACAUCGUAUGUACCGAAUCGGUUUGGGGUUUGGGUUUGGAAAGUAUUAUGUUACGCCGUUCGGAUCUGCACUUC,-1.03
UGGGAGGUGGAUUUUGUUUAUUUUUUUAGCUCAUUUCCAGGGGUGGGAAUUUUUUUUUAAUAUGUUUCAUGAAUAAAGUUGUUUUUGAAA,-0.306
UCCUGUGCUACACAUCGUAUGUACCGAAUCGGUUUUUUGGUUUUUUGGGGUUUUUUGGGAAAGUAUUAUGUUACGCCGUUCGGAUCUGCA,0.337
GUCCUGUGCUACACAUCGUAUGUACCGAAUCGGGUUUUUGGGAAAAAGGGAAAAAGGGAAAGUAUUAUGUUACGCCGUUCGGAUCUGCAC,-0.912
UCCUGUGCUACACAUCGUAUGUACCGAAUCAAACCCAAAUUUUUUUAAAUUUUUUUAAAAAAGUAUUAUGUUACGCCGUUCGGAUCUGCA,-1.22
UGGUGUUCAUAUUGCUGAUGUGAGCCAUUUUAUUAGGCCAGGAAAUGCCUUGGAUCAAGAAUCAGCCAGAAGAGGAACAACUGUGUAUCU,-1.37
GUCCUGUGCUACACAUCGUAUGUACCGAAUCGGUUUUUUUGGUUUUUGGAAAAAAAGGAAAGUAUUAUGUUACGCCGUUCGGAUCUGCAC,-1.8
UCAAGUCCUGUGCUACACAUCGUAUGUACCGAAUCGGGGUUGGUUGGGGUUGGGAAAGUAUUAUGUUACGCCGUUCGGAUCUGCACUUCC,-0.588
AAGUCCUGUGCUACACAUCGUAUGUACCGAAUCGGGGAAAGGGGAAAGGGAAAGGGGAAAGUAUUAUGUUACGCCGUUCGGAUCUGCACU,0.829

# Sample 5 — technique: RNAcompete; molecule type: RNA; matrix: in vitro; concentration: 20 nM; notes: 7-mer, probes averaged, single round; baseline: mean of 7-mers; reading: higher = stronger binding
# Target: PABPC1L2, full length, GST fusion (mouse, UniProt A0ABA7IW68)
# Residues (chain): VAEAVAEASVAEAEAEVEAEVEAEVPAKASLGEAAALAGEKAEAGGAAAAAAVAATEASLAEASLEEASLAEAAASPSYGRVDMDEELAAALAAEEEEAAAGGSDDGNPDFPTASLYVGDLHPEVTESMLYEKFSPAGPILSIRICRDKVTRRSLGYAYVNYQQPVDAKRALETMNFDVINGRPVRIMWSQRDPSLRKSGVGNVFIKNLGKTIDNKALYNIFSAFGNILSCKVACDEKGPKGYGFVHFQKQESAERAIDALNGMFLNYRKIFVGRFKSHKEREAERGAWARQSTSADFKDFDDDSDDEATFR
Oligonucleotide,7-mer Z-score
AAAGUUC,0.939
UCCUAAA,0.579
UAUAGAU,-0.22
GACUGUA,-0.0826
UCUCCGU,-0.369
UACCGCG,-0.266
CGGUCUU,-0.257
UACCAUU,-0.222
ACUACUA,-0.0391
CGCUACG,-0.162
GUGAGCC,-0.331
GCCGCAA,-0.0718
UUUAGCG,0.142
GGUCCGC,-0.311
ACUCACG,-0.0428
GCAUCCC,-0.32
AUAUCCA,-0.115
AGAGUCU,-0.414
AUAGUGU,-0.186
GGAUAAC,0.1
AUGCACA,-0.184
CUAUGAC,-0.168
UAUUCAA,-0.15
CUACAUA,-0.13
UAAGCGC,-0.179

# Excerpt of the above (sample 3):
Oligonucleotide,RBNS enrichment (R)
GAAUCUUCGGUUCUCGAGGAAGUGUUGACAGUGUGAUGCUAAUGUCUGCUUUUCUUGGCGUUGGGUAGAAGCAGGACAUCUGUGUGUAUGUGCGUAUUUAAAUUAGAUUA,4
UACCCUAACCCAUCACGCCCUGGUGAAGCCCCCAAGGCCUGCUGCUUUGGGGUGUGGCCUGUGACUGUGUUUCCCAGGUGGGGACCAGAAGAUGUCUGAGGUCCUCCUGA,0.229
UUCCAGAAAACUGUCACAGAGCACACGCACAAAGGCCUUCGCUGUAGGGCCCAACAGGGACAGGAGACUUGAGGACACCUGUCAUCAGCACUGGUGUCUAUUCCACAAGA,0.321
UCUCCACAGGUGCGGCCUGGCCCGGCCUCCUAAAGGCCACACCCUCCCCACGCACUUCCCAGGCCAGAAUCCAAACAUCGGGAACCCUGUUUUCUUCUGGGUGUGUCUCA,0.538
AACCUUUGCUUCGACAGGUCUUCACUCACGAUUUAUUCCUCCAGGUCUUUGAUUGGAGAGAGUAACUUUUUAAUUCUGUUGUUUUGCAGUUUGGCUCUGUAGGAGUGAGU,0.332
